Measured values gathered from unrelated publications.
A part holds a random share of what one study measured. Substitutions count along the parent as printed.

Study 1 — target: UBE2W UBC core domain (UniProt Q96B02); technique: yeast two-hybrid; matrix: yeast; setting: mostly zero background; relative to: not given; reading: higher = stronger interaction
B1: UBOX5 RING domain (UniProt O94941); chain EQPGSILGPECASCKRVFSPYFKKEPVYQLPCGHLLCRPCLGEKQRSLPMTCTACQRPVASQDVLR
B2: SH3RF1 RING domain (UniProt Q7Z6J0); chain DESALLDLLECPVCLERLDASAKVLPCQHTFCKRCLLGIVGSRNELRCPECRTLVGSGVEEL
B3: SYTL4 RING domain (UniProt Q96C24); chain RGSQHYSDRTCARCQESLGRLSPKTNTCRGCNHLVCRDCRIQESNGTWRCKVCAKEIELKKAT
B4: RFWD3 RING domain (UniProt Q6PCD5); chain ASMDEEEGDTCTICLEQWTNAGDHRLSALRCGHLFGYRCISTWLKGQVRKCPQCNKKARHSDIVV
Residues (chain): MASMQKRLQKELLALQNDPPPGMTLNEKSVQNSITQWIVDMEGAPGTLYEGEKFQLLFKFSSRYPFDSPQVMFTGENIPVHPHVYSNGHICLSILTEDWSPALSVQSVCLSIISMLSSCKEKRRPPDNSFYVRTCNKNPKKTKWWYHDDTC
`B1 (UBOX5 RING domain)`: “lacZ reporter activity” 0.
`NLSELTPYILCSICKGYLIDATTITECLHTFCKSCIVRHFYYSNRCPKCNIVVHQTQPLY (PCGF6 RING domain (UniProt Q9BYE7))`: “lacZ reporter activity” 0.
`GSRLQEINDVCAICYHEFTTSARITPCNHYFHALCLRKWLYIQDTCPMCHQKVYIEDDIK (RNF139 RING domain (UniProt Q8WU17))`: “lacZ reporter activity” 0.
`GSDDEEIPFKCFICRQSFQNPVVTKCRHYFCESCALQHFRTTPRCYVCDQQTNGVFNPA (RNF113A RING domain (UniProt O15541))` — result for “lacZ reporter activity”: 0.
For `FDGDVDPDLKCALCHKVLEDPLTTPCGHVFCAGCVLPWVVQEGSCPARCRGRLSAKELN (PDZRN3 RING domain (UniProt Q9UPQ7))`, “lacZ reporter activity” read 0.
For `B2 (SH3RF1 RING domain)`, “lacZ reporter activity” read 0.
`PEDRESLKSACVVCLSSFKSCVFLECGHVCSCTECYRALPEPKKCPICRQAITRVIPLY (MUL1 RING domain (UniProt Q969V5))` — result for “lacZ reporter activity”: 12400.
`KLRKLKEAMLCMVCCEEEINSTFCPCGHTVCCESCAAQLQSCPVCRSRVEHVQHVY (MYLIP RING domain (UniProt Q8WY64))`: “lacZ reporter activity” 0.
`B3 (SYTL4 RING domain)` — result for “lacZ reporter activity”: 0.
For `AVPSGLEENLCKICMDSPIDCVLLECGHMVTCTKCGKRMNECPICRQYVIRAVHVF (RFFL RING domain (UniProt Q8WZ73))`, “lacZ reporter activity” read 14500.
`KETIKKTTKPCPRCHVPVEKNGGCMHMKCPQPQCRLEWCWNCGCEWNRVCMG (PRKN RING domain (UniProt O60260))` — result for “lacZ reporter activity”: 0.
Under “lacZ reporter activity”, `B4 (RFWD3 RING domain)` is recorded as 0.

Study 2 — technique: RNA Bind-n-Seq; form: RNA; matrix: in vitro; concentration: 365 nM; relative to: no-protein control; reading: higher = stronger binding
Target: RNA binding protein fox-1 homolog 2, RRM domain, GST-SBP tag (RBFOX2, Homo sapiens, UniProt O43251-10, residues 100-194)
Setting: natural RNA segment, single round, ends assumed
Target sequence (chain): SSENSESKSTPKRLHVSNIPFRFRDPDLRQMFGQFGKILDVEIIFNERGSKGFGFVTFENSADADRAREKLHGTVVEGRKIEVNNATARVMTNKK
For `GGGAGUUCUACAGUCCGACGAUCUUUGCAGGUGACCUGGUUACUUAGCUAGGAUUGGUGAUUUGUACUGCUUUAUGGUCAUUUGAAGGGCCCUUUAGUUUUUAUGAUAAUUUUUAAAAUAGGAACUUUUGAUAUGGAAUUCUCGGGUGCCAA`, “RBNS enrichment (R)” read 0.42.
For `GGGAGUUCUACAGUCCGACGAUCCCAGCUUUAAGCACUUUGUAAGACAUGGCUGAAAGUAGCUUUUCUAUCAGAAUUGCAGAUAGUCAUGUUGGGCUAACAGUCAAUUGGAUAUAUUCCUUUACCUCACAUGAUGGAAUUCUCGGGUGCCAA`, “RBNS enrichment (R)” read 0.322.
For `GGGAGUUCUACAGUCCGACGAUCUGAAGGUGGGAUAAGGCUCCUCUGUUAGUGCUGGAAGCUCCUGUAAUUGCCGCAUGGAUCCCACUGUGCCCUCUUGUUCUGUGCAAGUCUGUCCUGUCUGGGCACUAACCUGGAAUUCUCGGGUGCCAA`, “RBNS enrichment (R)” read 3.06.
`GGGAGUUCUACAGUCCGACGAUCUGAAGCUUCCAAAUCAAGAAAAGCCGGCACCAAGAACUUCCAUUCUAAUCUAGAGCUGACCAGUUUGAGCUGAUUCUCUCUUUGAAGAGUCCUUCUUGAUUGCAGUGCAGUGGAAUUCUCGGGUGCCAA` — result for “RBNS enrichment (R)”: 0.309.
For `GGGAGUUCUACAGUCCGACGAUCGGCUUAGAGGUGAAGAGCAAGACUGGCAAGCUCCAGGAUUUCAAAUCCUUCCUGCUUAAGGACUCAGAAACAAGUCAGCGUCUGGCCAACCUCAGGCAACGGGUGGAGCAUGGAAUUCUCGGGUGCCAA`, “RBNS enrichment (R)” read 3.41.
For `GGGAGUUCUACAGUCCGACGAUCUAGACUAAAGCACCGGGCGGUCCAGCUGUAGCUGUUCUUCAGUGAGGGUGAGGAUCAGUGUAUUAGAGCAUCUUCGGAGUGUUACCUACCAGUGUUGUCCAGAAGAAGCAUGGAAUUCUCGGGUGCCAA`, “RBNS enrichment (R)” read 4.37.
`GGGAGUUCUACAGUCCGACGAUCAUACCUGAAAGCAGUGAUUUACUAGAAUUGCUUUGUGUGGCUACUAAGUUUAUUUUGUCAAAAAUGACAAGGAAAAAGCCAGCUGUUUUCAUAGACCUUUUCAUUAUGAUUGGAAUUCUCGGGUGCCAA`: “RBNS enrichment (R)” 0.582.
`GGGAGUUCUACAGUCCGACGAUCGGGCUCCUCCCCGAGGGCUUGCUCCUGGUGGCAGCAGCUGAGAUCAGGACAUCUGUGGCCCUGAGCCGGCUCUGGUCCUCGGCCUUUCCCAGCCUUCCCACAUCUUCCCAUGGAAUUCUCGGGUGCCAA`: “RBNS enrichment (R)” 0.293.

Study 3 — observed: peptide-MHC binding; form: peptide; concentration: concentration not given
Target: HLA class I histocompatibility antigen, A alpha chain, allele A*80:01 (Homo sapiens, UniProt P04439)
`NYNGLLSSI`: binding “inactive”.
`CRTAFKPVL` — result for binding: “inactive”.
Under binding, `RKLTNPANK` is recorded as “inactive”.
`KSAAIDGEY`: binding “inactive”.
`KFFMVHSLK` — result for binding: “inactive”.
`CERYGFPAS`: binding “inactive”.
`ATPHSVWVF` — result for binding: “inactive”.
For `FTGEYLLRL`, binding read “inactive”.
`WTLAKPDFV`: binding “inactive”.
For `LTMNLVSDI`, binding read “inactive”.
`SWHHTSDDF`: binding “inactive”.
Under binding, `ATKDSFQSF` is recorded as “inactive”.
For `LMTHTWHAK`, binding read “inactive”.
`EDFEIFYNL`: binding “inactive”.
`ATEDPSSGY`: binding “inactive”.
`FLRKNQRAL` — result for binding: “inactive”.
Under binding, `YFEYIEENKY` is recorded as “inactive”.
For `YQVEGATRV`, binding read “inactive”.
`GRFQEALKK` — result for binding: “inactive”.
Under binding, `AGGWVLWKV` is recorded as “inactive”.
`AARHKHQVM` — result for binding: “inactive”.
`YAQMWSLMY`: binding “inactive”.
For `GSRAYRNAL`, binding read “inactive”.
Under binding, `FTWQHNYYL` is recorded as “inactive”.
For `AVDADDSHF`, binding read “inactive”.

Study 4 — target: CCNB1, cyclin fold, Cln2 fusion (human); technique: yeast growth competition, sequencing; matrix: yeast; setting: strong parent motif; relative to: not given; reading: higher = stronger binding; parent: viral docking peptide; KGVKRKLFAEDSS
Under “normalised enrichment score”, `L7N` is recorded as 0.626.
Under “normalised enrichment score”, `D11L` is recorded as 0.798.
For `R5S`, “normalised enrichment score” read -0.0321.
Under “normalised enrichment score”, `S12A` is recorded as 2.46.
`S13A` — result for “normalised enrichment score”: 2.22.
`S12L`: “normalised enrichment score” 2.51.
`K4N` — result for “normalised enrichment score”: 2.42.
`A9S`: “normalised enrichment score” 2.14.

Some of these lines once more (study 1):
For `FDGDVDPDLKCALCHKVLEDPLTTPCGHVFCAGCVLPWVVQEGSCPARCRGRLSAKELN (PDZRN3 RING domain (UniProt Q9UPQ7))`, “lacZ reporter activity” read 0.
`PEDRESLKSACVVCLSSFKSCVFLECGHVCSCTECYRALPEPKKCPICRQAITRVIPLY (MUL1 RING domain (UniProt Q969V5))` — result for “lacZ reporter activity”: 12400.
For `AVPSGLEENLCKICMDSPIDCVLLECGHMVTCTKCGKRMNECPICRQYVIRAVHVF (RFFL RING domain (UniProt Q8WZ73))`, “lacZ reporter activity” read 14500.
`GSRLQEINDVCAICYHEFTTSARITPCNHYFHALCLRKWLYIQDTCPMCHQKVYIEDDIK (RNF139 RING domain (UniProt Q8WU17))`: “lacZ reporter activity” 0.
`KLRKLKEAMLCMVCCEEEINSTFCPCGHTVCCESCAAQLQSCPVCRSRVEHVQHVY (MYLIP RING domain (UniProt Q8WY64))`: “lacZ reporter activity” 0.
`B3 (SYTL4 RING domain)` — result for “lacZ reporter activity”: 0.
`GSDDEEIPFKCFICRQSFQNPVVTKCRHYFCESCALQHFRTTPRCYVCDQQTNGVFNPA (RNF113A RING domain (UniProt O15541))` — result for “lacZ reporter activity”: 0.
